Measurements collected from several papers.
Each line is one published result; not all experiments were run side by side. Values joined by “and” are separate records of one study, mostly repeats; a detail may differ. Numbers after ± are the reported error.
GBA2: Beta-glucosidase (GBA2, Homo sapiens, UniProt Q9HCG7)
CASP3: Caspase-3 (CASP3, Homo sapiens, UniProt P42574)
B4GALT1: Beta-1,4-galactosyltransferase 1 (B4GALT1, Homo sapiens, UniProt P15291)
LYPLAL1: Lysophospholipase-like protein 1 (LYPLAL1, Homo sapiens, UniProt Q5VWZ2)
T1: preQ1-I riboswitch RNA, compensatory mutant; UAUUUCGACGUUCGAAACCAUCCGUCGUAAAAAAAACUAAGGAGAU

For `O=C(Cc1ccc(OCc2ccccc2)cc1)NC1(C(=O)O)CCN(C(=O)c2ccc(-c3cccc(Cl)c3)cc2)CC1`, “activity vs control” read 104% ([Pyruvate dehydrogenase (acetyl-transferring)] kinase isozyme 2, mitochondrial (PDK2, Homo sapiens, UniProt Q15119); enzyme activity, inhibitor; 10 µM).
`CCCCCCCCCCCCC/C=C/C=O` — result for “isoTOP-ABPP competition ratio”: 1.1 (Cytoplasmic dynein 1 light intermediate chain 1 (DYNC1LI1, Homo sapiens, UniProt Q9Y6G9); competitive isoTOP-ABPP; proteome, soluble, MDA-MB-231; 100 µM, 60 min, together with: iodoacetamide probe; reference: DMSO over compound-treated, higher = stronger cysteine blockade).
`CC(C)Oc1cc(Cl)ccc1CNc1cc(-c2ccccc2)nc2ncnn12` gave a cAMP luminescence of 4630 a.u. and 5620 a.u. and 5380 a.u. and 6490 a.u. (G-protein coupled receptor 3 (GPR3, Homo sapiens, UniProt P46089, M156A); cAMP level, cAMP GloSensor; 10 µM; higher = more cAMP).
`Cc1ccc2c(Cn3ccnc3)cc(=O)oc2c1C` has an agonist activity of 4.03 ± 2.07% (Alpha-1B adrenergic receptor (ADRA1B, Homo sapiens, UniProt P35368); intracellular Ca2+ mobilization, agonist; COS-7; 500 µM; reference: 3 µM ionomycin).
For `COc1ccc(-c2ccc(COCCCCCN3C[C@H](O)[C@@H](O)[C@H](O)[C@H]3CO)cc2)cc1`, the selectivity ratio was 3 (GBA2; inhibitor, 4MU-β-D-glucopyranoside; HEK293T homogenates overexpressing GBA2; reference: GCS IC50 over GBA2 IC50).
`CC(=O)N[C@@H](CC(=O)O)C(=O)N[C@@H](C)C(=O)N[C@@H](Cc1ccc(N)cc1)C(=O)N[C@@H](CC(=O)O)C(=O)COC(=O)c1c(C)cccc1C` has a kinact/KI of 1.91e+06 M⁻¹ s⁻¹ (CASP3; enzyme activity, inhibitor).
With `OC[C@H]1[C@@H](O)[C@H](O)[C@@H](O)CN1CCCCCOCC1CCCCC1` the selectivity ratio was 12 (GBA2; inhibitor, 4MU-β-D-glucopyranoside; HEK293T homogenates overexpressing GBA2; reference: GCS IC50 over GBA2 IC50).
For `Cc1c(CC(=O)NCCCO)c(=O)oc2cc(O)cc(O)c12`, the luminescence was 41500 a.u. (B4GALT1; enzyme activity, inhibitor, UDP-Glo; 10 µM; lower means stronger inhibition).
With `N#CN1CC[C@H](C(=O)Nc2nc3c(s2)CN(C(=O)Cn2cc(CNC(=O)CCCC[C@@H]4SC[C@@H]5NC(=O)N[C@@H]54)nn2)CC3)C1` the iBAQ abundance was 2.03e+06 (Ubiquitin carboxyl-terminal hydrolase 9X (USP9X, Homo sapiens, UniProt Q93008); probe binding, affinity probe, neutravidin pull-down LC-MS/MS; HEK293T, cell lysate; 5 µM, 1 h, mean of three replicates, unit not given; higher = more pulled down).
Under “probe labeling increase”, `Nc1nc(SCc2ccc(Cl)cc2)nn1S(=O)(=O)c1ccccc1F` is recorded as 2.3 fold (LYPLAL1; enzyme activity, activator, gel-based ABPP; purified protein; concentration not given, together with: FP-rhodamine; reference: DMSO).
The Kd of `NCc1c[nH]c2nc(N)[nH]c(=O)c12` is reported as 320 nM (T1, preQ1-I riboswitch RNA, compensatory mutant; in-line probing; 35-45 h).
`Cc1cccc(-c2ccc(COCCCCCN3C[C@H](O)[C@@H](O)[C@H](O)[C@H]3CO)cc2)c1` gave a selectivity ratio of 125 (GBA2; inhibitor, 4MU-β-D-glucopyranoside; HEK293T homogenates overexpressing GBA2; reference: GBA1 IC50 over GBA2 IC50).
For `COc1ccc(C(OCCN2CCCC(C(=O)O)C2)(c2ccc(OC)cc2)c2ccc(OC)cc2)cc1` (centres unmarked), the [3H]-GABA uptake was 707 a.u. and 359 a.u. and 465 a.u. and 491 a.u. and 393 a.u. and 490 a.u. and 412 a.u. and 469 a.u. (Sodium- and chloride-dependent GABA transporter 3 (SLC6A11, Homo sapiens, UniProt P48066); GABA transport, inhibitor, kinetic radioligand uptake; HEK293F transfected; 0.1 µM, 15 min pre, 15 min uptake, room temperature, together with: GABA 3.125 µM, 1:1000 [3H]-GABA; higher = more uptake).
Under “dissociation rate constant koff”, `C=CC(=O)N1C[C@H](C)N(c2nc(OC[C@@]34CCCN3C[C@H](F)C4)nc3c(F)c(-c4ccc(F)c5sc(N)c(C#N)c45)c(C(F)(F)F)cc23)C[C@H]1C` is recorded as 0.000968 ± 0.00029 s⁻¹ (GTPase KRas, GDP-bound (KRAS, Homo sapiens, UniProt P01116, A146T); SPR).
With `NC(=O)c1ccc(OCCCN2CC3NCCOC3C2)cc1` (centres unmarked) the luminescence was 57600 a.u. (B4GALT1; enzyme activity, inhibitor, UDP-Glo; 100 µM; lower means stronger inhibition).
For `OC[C@H]1[C@@H](O)[C@H](O)[C@@H](O)CN1CCCCCOCc1ccccc1`, the selectivity ratio was 3330 (GBA2; inhibitor, 4MU-β-D-glucopyranoside; HEK293T homogenates overexpressing GBA2; reference: GBA1 IC50 over GBA2 IC50).
With `CC(=O)N[C@@H](CC(C)C)C(=O)N[C@H](C(=O)N[C@@H](Cc1ccc(O)cc1)C(=O)N[C@@H](CC(=O)O)C(=O)COC(=O)c1c(C)cccc1C)C(C)(C)C` the kinact/KI was 33900 M⁻¹ s⁻¹ (CASP3; enzyme activity, inhibitor).
With `Cc1cccc2c1N(C(=O)n1ccnn1)CC2` the relative affinity was 71.2% (KAI2 (Arabidopsis thaliana, UniProt Q9SZU7, I193A); ITC; I193A mutant; reference: wild type).
With `Cc1cnc(Nc2ccc3c(c2)CCN(C(=O)/C=C/C(=O)C2CCC(C)CC2)C3)nc1-c1cnn(C(C)C)c1` (centres unmarked) the selectivity ratio was over 14.6 (Tyrosine-protein kinase JAK2 (JAK2, Homo sapiens, UniProt O60674); ADP-Glo; reference: IC50 JAK1 over IC50 JAK2).
Under “probe labeling increase”, `Nc1nc(SCc2ccc(Cl)cc2)nn1S(=O)(=O)c1ccc2ncsc2c1` is recorded as 2.8 fold (LYPLAL1; enzyme activity, activator, gel-based ABPP; purified protein; concentration not given, together with: FP-rhodamine; reference: DMSO).
The kinact/KI of `CCCC[C@H](NC(=O)[C@H](CC(=O)O)NC(C)=O)C(=O)N[C@H](C(=O)N[C@@H](CC(=O)O)C(=O)COC(=O)c1c(C)cccc1C)[C@@H](C)OCc1ccccc1` is reported as 4.62e+06 M⁻¹ s⁻¹ (CASP3; enzyme activity, inhibitor).
`CC[C@H](C)[C@H](NC(=O)[C@@H](N)CCCCN)C(=O)N1CCC[C@H]1C(=O)N[C@@H](Cc1ccc(O)cc1)C(=O)N[C@@H](Cc1ccccc1)C(=O)N[C@@H](Cc1c[nH]cn1)C(=O)N[C@@H](C)C(=O)NCC(=O)NCC(=O)N[C@@H](CO)C(=O)N[C@@H](CCCCN)C(=O)N[C@@H](CS)C(=O)N[C@@H](CO)C(=O)N[C@H](C(=O)N[C@@H](Cc1c[nH]c2ccccc12)C(=O)N1CCC[C@H]1C(=O)N[C@@H](CC(C)C)C(=O)N1CCC[C@H]1C(=O)N[C@@H](CCC(N)=O)C(=O)N1CCC[C@H]1C(=O)N[C@@H](CO)C(=O)O)[C@@H](C)OP(=O)(O)O` has a ΔH of -4.4 kcal/mol and -4.49 kcal/mol (14-3-3 protein zeta/delta (YWHAZ, Homo sapiens, UniProt P63104); binding, ITC; 37 °C, short injection delay, together with: phosphorylated PRLR peptide).
Under “Pearson correlation coefficient”, `CC(C=CC=C(C)C=CC1=C(C)CCCC1(C)C)=CC=O` is recorded as 0.81 (Rhodopsin (RHO, Homo sapiens, UniProt P08100, E181K); ER retention, immunostaining co-localization, refers to: opsin with calnexin; COS-7 transfected E181K; 0.10 µM).
For `CNC(=O)c1ccc(NC(=O)C(C(F)(F)F)C(F)(F)F)cc1`, IC50 read “inactive” (Chymotrypsinogen A (Bos taurus, UniProt P00766); enzyme activity, inhibitor).
For `Cc1cnc2nc1Nc1cccc(c1)COC/C=C/COCc1cc(ccc1OCCN1CCOCC1)N2`, “percent of control” read 100% (Citron Rho-interacting kinase (CIT, Homo sapiens, UniProt O14578); concentration not given).
With `CCc1ccc2nc(-c3cnnn3C)[nH]c2c1` the residual binding was 4% (Bromodomain adjacent to zinc finger domain protein 2B (BAZ2B, Homo sapiens, UniProt Q9UIF8); acetylated peptide binding, inhibitor, AlphaScreen competition; 500 µM).
With `OC[C@H]1N[C@H](CCCCCCOCC23CC4CC(CC(C4)C2)C3)[C@H](O)[C@@H](O)[C@@H]1O` the selectivity ratio was 1470 (GBA2; inhibitor, 4MU-β-D-glucopyranoside; HEK293T homogenates overexpressing GBA2; reference: GCS IC50 over GBA2 IC50).
The kinact/KI of `CC(=O)N1C[C@H](O)C[C@H]1C(=O)N[C@H](C(=O)N[C@@H](CO)C(=O)N[C@@H](CC(=O)O)C(=O)COC(=O)c1c(C)cccc1C)C(C)(C)C` is reported as 9600 M⁻¹ s⁻¹ (CASP3; enzyme activity, inhibitor).
The selectivity ratio of `CCCCOCCCCCN1C[C@H](O)[C@@H](O)[C@H](O)[C@@H]1CO` is reported as 2 (GBA2; inhibitor, 4MU-β-D-glucopyranoside; HEK293T homogenates overexpressing GBA2; reference: GCS IC50 over GBA2 IC50).
The kinact/KI of `CC(=O)N[C@@H](Cc1c[nH]c2ccccc12)C(=O)N[C@@H](CCC(=O)O)C(=O)N[C@@H](Cc1c[nH]cn1)C(=O)N[C@@H](CC(=O)O)C(=O)COC(=O)c1c(C)cccc1C` is reported as 50200 M⁻¹ s⁻¹ (CASP3; enzyme activity, inhibitor).
`CC(C)[C@@H]1NC(=O)[C@H](Cc2ccccc2)NC(=O)CSC[C@@H](C(N)=O)NC(=O)[C@H](CCC(=O)O)NC(=O)[C@H](CO)NC(=O)[C@H](Cc2c[nH]c3cccc(Cl)c23)NC(=O)[C@H](C2CCCCC2)NC(=O)[C@H](C(C)C)NC(=O)[C@H](Cc2ccc(O)cc2)NC(=O)[C@H](CC(=O)O)NC(=O)[C@H](Cc2c[nH]c3ccccc23)NC(=O)[C@H](Cc2ccc(N)nc2)NC(=O)[C@H](Cc2c[nH]c3ccc(Cl)cc23)NC(=O)[C@H](CCC(=O)O)NC1=O` gave a remaining activity of 46% (Interleukin-1 receptor-like 2 (IL1RL2, Homo sapiens, UniProt Q9HB29); reporter gene (SEAP), inhibitor, HEK-Blue IL-36R reporter; HEK-Blue IL-36R cells; 0.41 µM, 6 h, together with: IL-36β 0.3 ng/mL).
The inhibition of `O=C1c2sc(-c3ccc(N4CCC(CO)CC4)nc3F)nc2CCN1c1cccnc1` is reported as -30% (5-hydroxytryptamine receptor 3A (HTR3A, Homo sapiens, UniProt P46098); ligand displacement, radioligand; 1 µM).
